{"data": "Assay results collected from several papers", "note": "Parts stem from different laboratories: compare values within a part only.", "UniProt P11388, sequence (whole entry, looked up)": "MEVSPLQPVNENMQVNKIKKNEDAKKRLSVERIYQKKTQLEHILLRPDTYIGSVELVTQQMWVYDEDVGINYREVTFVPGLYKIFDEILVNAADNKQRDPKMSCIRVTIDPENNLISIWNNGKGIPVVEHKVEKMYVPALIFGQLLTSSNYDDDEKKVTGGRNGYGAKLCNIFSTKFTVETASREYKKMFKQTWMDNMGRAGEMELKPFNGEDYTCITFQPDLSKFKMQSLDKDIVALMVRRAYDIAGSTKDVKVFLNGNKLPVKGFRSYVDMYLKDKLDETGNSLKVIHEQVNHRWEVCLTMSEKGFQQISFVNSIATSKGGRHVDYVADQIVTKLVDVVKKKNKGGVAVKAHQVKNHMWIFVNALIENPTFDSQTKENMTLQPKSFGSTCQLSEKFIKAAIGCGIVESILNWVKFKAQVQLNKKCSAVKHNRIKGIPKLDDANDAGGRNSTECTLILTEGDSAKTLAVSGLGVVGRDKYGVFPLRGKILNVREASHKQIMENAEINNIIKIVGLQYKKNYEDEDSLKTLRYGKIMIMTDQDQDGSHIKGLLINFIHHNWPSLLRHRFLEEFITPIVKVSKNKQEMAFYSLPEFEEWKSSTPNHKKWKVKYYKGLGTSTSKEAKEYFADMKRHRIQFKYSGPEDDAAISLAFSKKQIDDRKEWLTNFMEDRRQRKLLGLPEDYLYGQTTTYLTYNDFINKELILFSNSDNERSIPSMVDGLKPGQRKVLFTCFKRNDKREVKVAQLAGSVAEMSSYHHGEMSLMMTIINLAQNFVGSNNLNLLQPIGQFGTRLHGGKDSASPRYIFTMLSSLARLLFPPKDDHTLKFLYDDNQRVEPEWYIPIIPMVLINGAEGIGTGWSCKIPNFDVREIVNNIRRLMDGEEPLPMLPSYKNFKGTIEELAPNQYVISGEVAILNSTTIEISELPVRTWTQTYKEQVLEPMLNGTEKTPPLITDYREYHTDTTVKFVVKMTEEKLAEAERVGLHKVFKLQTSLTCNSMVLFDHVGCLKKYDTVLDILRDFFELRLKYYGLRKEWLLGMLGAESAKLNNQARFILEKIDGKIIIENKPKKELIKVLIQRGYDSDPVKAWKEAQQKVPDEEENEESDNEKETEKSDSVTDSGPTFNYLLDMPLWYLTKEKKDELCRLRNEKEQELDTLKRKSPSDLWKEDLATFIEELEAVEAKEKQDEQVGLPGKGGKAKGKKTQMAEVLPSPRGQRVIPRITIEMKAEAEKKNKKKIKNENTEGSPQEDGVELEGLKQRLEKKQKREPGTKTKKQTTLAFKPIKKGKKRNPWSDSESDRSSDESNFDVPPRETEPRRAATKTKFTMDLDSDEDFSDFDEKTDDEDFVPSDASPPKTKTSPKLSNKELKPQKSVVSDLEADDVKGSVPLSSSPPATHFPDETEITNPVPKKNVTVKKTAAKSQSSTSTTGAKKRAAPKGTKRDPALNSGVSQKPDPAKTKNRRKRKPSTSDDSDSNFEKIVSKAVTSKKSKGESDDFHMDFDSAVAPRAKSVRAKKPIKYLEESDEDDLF"}
{"data": "Sample 1", "SMILES": "CO/N=C(\\C(=O)N[C@@H]1C(=O)N2C(C(=O)O)=C(COC(C)=O)CS[C@H]12)c1csc(N)n1"}
{"organism": "Citrobacter freundii", "strain": "clinical isolate RKI-No_604/16", "MIC [µg/mL]": "> 16"}
{"organism": "Pseudomonas aeruginosa", "strain": "clinical isolate RKI-No_584/15", "MIC [µg/mL]": "> 16"}
{"organism": "Pseudomonas aeruginosa", "strain": "clinical isolate RKI-No_253/15", "MIC [µg/mL]": "> 16"}
{"organism": "Pseudomonas aeruginosa", "strain": "clinical isolate RKI-No_615/15", "MIC [µg/mL]": "> 16"}
{"data": "Sample 2", "target": "Replicase polyprotein 1ab, nsp14 (rep, Severe acute respiratory syndrome coronavirus 2, UniProt P0DTD1)", "action": "inhibitor"}
{"Structure (SMILES)": "COc1ccccc1CNCc1cc(S(=O)(=O)N2CCc3ccccc3C2)c(C)n1C", "IC50 [nM]": "> 6250"}
{"Structure (SMILES)": "Cc1c(S(=O)(=O)N2CCc3[nH]ncc3C2)cc(C(=O)NCc2c(F)ccc3occc23)n1C", "IC50 [nM]": "< 0.15"}
{"Structure (SMILES)": "Cc1c(S(=O)(=O)N2CCC(C)CC2)cc(C(=O)NCc2nccnc2N2CCCC2)n1C", "IC50 [nM]": 52}
{"Structure (SMILES)": "Cc1c(S(=O)(=O)N2CCC(C)CC2)cc(C(=O)NCc2c(F)ccc3occc23)n1C", "IC50 [nM]": 11}
{"Structure (SMILES)": "COc1ccccc1CNC(=O)c1cc(S(=O)(=O)N2CCc3cc(Cl)ccc3C2)c(C)n1C", "IC50 [nM]": "> 6250"}
{"data": "Further values, each from its own experiment"}
{"Compound": "CC1COc2ccccc2N1C(=O)C(Cl)Cl (stereo not shown)", "tested on": "carboxylesterase", "assay": "substrate depletion", "test system": "rhesus monkey, male, liver microsomes", "conditions": "5 µM, pH 7.4, without NADPH", "measurement": "intrinsic clearance", "value": "900 µL/min/mg"}
{"Compound": "COC(=O)Nc1c(N)nc(-c2nn(Cc3ccccc3F)c3ncc(F)cc23)nc1N", "test system": "humans, plasma", "conditions": "10 mg once daily, phase I DDI study, together with: warfarin", "measurement": "AUC(0-tau) at steady state", "value": "5330 ng·h/mL"}
{"Compound": "Fc1ccccc1Cc1nc(-c2nc(C(F)(F)F)n[nH]2)cn2ccnc12", "assay": "measured: Nasopharyngitis", "test system": "healthy humans", "conditions": "oral, 10 mg, fed, single dose", "measurement": "subjects with adverse events", "value": "0%"}
{"Compound": "COc1cc([C@@H]2c3cc4c(cc3[C@@H](O[C@@H]3O[C@@H]5CO[C@@H](C)O[C@H]5[C@H](O)[C@H]3O)[C@H]3COC(=O)[C@H]23)OCO4)cc(OC)c1O", "tested on": "TOP2A (Homo sapiens, UniProt P11388)", "assay": "DNA decatenation, inhibitor, gel-based decatenation", "conditions": "7.8 µM", "measurement": "inhibition", "value": "91.2%"}
{"note": "Repeated from above (sample 1):"}
{"organism": "Pseudomonas aeruginosa", "strain": "clinical isolate RKI-No_253/15", "MIC [µg/mL]": "> 16"}
